Measured values from different studies.
Each line is one published result; not all experiments were run side by side. ± marks the error that the study gave. In brackets after ≈: the same amount, converted by molar mass.

Amino acid sequences for entries named in this document (tags omitted).
UniProt P18825, whole entry: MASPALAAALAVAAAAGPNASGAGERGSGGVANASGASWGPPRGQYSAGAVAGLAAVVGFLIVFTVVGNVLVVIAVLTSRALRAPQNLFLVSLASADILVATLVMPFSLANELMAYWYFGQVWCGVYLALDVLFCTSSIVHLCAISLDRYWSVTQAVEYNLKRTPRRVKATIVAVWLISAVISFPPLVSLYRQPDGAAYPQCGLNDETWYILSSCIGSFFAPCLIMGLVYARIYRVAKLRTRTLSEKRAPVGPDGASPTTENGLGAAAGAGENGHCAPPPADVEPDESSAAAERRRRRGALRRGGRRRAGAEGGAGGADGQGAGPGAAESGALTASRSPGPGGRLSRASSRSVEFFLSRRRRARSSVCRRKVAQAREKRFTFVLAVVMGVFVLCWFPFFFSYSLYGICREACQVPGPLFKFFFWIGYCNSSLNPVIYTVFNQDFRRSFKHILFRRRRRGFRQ
UniProt Q13464, whole entry: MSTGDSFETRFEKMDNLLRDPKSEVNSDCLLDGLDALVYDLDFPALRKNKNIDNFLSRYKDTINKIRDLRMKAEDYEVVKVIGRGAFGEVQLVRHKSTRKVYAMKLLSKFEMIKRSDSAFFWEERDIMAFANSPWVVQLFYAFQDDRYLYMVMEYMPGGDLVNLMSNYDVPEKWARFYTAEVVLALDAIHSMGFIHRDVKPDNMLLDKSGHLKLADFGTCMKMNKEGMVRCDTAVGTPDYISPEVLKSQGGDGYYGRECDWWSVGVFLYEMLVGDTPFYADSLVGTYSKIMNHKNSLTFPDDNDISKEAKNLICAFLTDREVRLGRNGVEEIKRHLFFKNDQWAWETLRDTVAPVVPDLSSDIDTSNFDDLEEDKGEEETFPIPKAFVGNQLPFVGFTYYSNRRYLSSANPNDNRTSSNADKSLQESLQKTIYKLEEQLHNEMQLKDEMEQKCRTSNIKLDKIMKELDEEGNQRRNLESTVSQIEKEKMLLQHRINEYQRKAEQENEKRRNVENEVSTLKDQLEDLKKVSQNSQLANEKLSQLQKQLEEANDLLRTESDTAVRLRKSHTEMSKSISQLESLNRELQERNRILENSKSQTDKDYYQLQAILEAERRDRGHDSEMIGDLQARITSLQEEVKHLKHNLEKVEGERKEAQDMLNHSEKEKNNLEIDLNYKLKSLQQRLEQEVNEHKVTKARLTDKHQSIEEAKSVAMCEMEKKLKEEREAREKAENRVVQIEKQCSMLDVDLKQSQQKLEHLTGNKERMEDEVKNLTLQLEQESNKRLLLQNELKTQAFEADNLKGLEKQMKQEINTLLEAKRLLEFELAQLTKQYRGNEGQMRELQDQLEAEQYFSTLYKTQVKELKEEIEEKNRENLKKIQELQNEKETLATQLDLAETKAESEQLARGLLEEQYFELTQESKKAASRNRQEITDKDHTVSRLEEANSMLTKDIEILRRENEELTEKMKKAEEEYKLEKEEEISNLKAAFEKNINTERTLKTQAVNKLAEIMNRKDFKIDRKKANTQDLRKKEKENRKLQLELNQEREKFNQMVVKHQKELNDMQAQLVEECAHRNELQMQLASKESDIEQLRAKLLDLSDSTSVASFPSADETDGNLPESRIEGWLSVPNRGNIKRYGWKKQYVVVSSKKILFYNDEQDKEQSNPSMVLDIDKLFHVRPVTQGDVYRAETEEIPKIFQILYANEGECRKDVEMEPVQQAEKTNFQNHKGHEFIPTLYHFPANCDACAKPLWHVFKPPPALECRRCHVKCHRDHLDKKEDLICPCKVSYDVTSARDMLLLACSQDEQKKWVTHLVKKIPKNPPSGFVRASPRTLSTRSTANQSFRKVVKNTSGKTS

With `CCCCCCCCCCCCCCCC(=O)NCCCC[C@H](NC(=O)CNC(=O)[C@H](CO)NC(=O)CNC(=O)[C@H](CCC(N)=O)NC(=O)[C@H](Cc1c[nH]cn1)NC(=O)[C@H](Cc1c[nH]c2ccccc12)NC(=O)[C@H](CC(N)=O)NC(=O)CNC(=O)[C@@H](NC(=O)[C@H](CO)NC(=O)[C@H](CC(=O)O)NC(=O)[C@H](CC(C)C)NC(=O)[C@@H](NC(=O)[C@H](CCCCN)NC(=O)[C@H](CC(N)=O)NC(=O)[C@H](CO)NC(=O)[C@H](CCCNC(=N)N)NC(=O)[C@H](CCCNC(=N)N)NC(=O)[C@@H](NC(=O)[C@H](Cc1c[nH]c2ccccc12)NC(=O)[C@H](CCC(=O)O)NC(=O)[C@H](CCCCN)NC(=O)[C@H](CO)NC(=O)[C@H](CCC(=O)O)NC(=O)[C@H](CCC(=O)O)NC(=O)[C@H](CC(C)C)NC(=O)[C@H](CC(=O)O)NC(=O)[C@H](CO)NC(=O)[C@H](CCCCN)NC(=O)[C@@H](NC(=O)[C@H](CCCCN)NC(=O)[C@H](CC(N)=O)NC(=O)[C@H](CC(C)C)NC(=O)[C@@H](NC(=O)[C@@H](NC(=O)[C@H](CO)NC(=O)[C@@H](NC(=O)[C@H](CC(=O)O)NC(=O)[C@@H](NC(=O)[C@@H]1CCCN1C(=O)[C@H](CC(=O)O)NC(=O)[C@H](CC(C)C)NC(=O)[C@H](C)NC(=O)[C@@H](N)C(C)C)[C@@H](C)CC)[C@@H](C)CC)[C@@H](C)CC)C(C)C)[C@@H](C)CC)[C@@H](C)CC)[C@@H](C)CC)[C@@H](C)CC)C(=O)O` the solubility was 1340 ± 120 µg/mL (≈ 251 µM) (PBS).
For `CCN1CCN(Cc2ccc(NC(=O)c3ccc(C)c(/C=C/c4cnc5[nH]ccc5c4OC)c3)cc2C(F)(F)F)CC1`, “log2 fold change” read -2.32 (FIP1L1-PDGFRA fusion; kinase-CDC37 interaction, cell-based kinome screen; 5 µM; reference: vehicle).
`CCCN1CCN(c2ccc3c(c2)C2CC3CCN2C(=O)OCc2ccccc2)CC1` (stereo not drawn) has a Ki of 539 nM (Alpha-2C adrenergic receptor (ADRA2C, Homo sapiens, UniProt P18825); binding, radioligand binding).
For `CCOc1ccc2cc(-c3nn(CC4CCN(C)CC4)c4ncnc(N)c34)ccc2n1`, the half-life was greater than 2 h (concentration not given, human).
For `CCCSc1nc(N[C@@H]2C[C@H]2c2ccc(F)c(F)c2)c2nnn([C@@H]3C[C@H](OCCO)[C@@H](O)[C@H]3O)c2n1`, the plasma concentration was 327 ± 372 ng/mL (STEMI patients, plasma; 180 mg loading dose, 6 h, together with: morphine).
`CC#C/C(=N\OC[C@H]1COCCN1)c1ccc2ncnc(Nc3ccc(OCc4cccc(F)c4)c(Cl)c3)c2c1` gave an inhibition of -8.2% (Rho-associated protein kinase 1 (ROCK1, Homo sapiens, UniProt Q13464); kinase activity; 10 µM).
With `C=C(C)[C@@H]1[C@H]2OC(=O)[C@@H]1[C@]1(O)C[C@H]3O[C@]34C(=O)O[C@H]2[C@]14C` the brain concentration was 376 ± 120 nM (male NIH-NCI Swiss mice, dead animals, brain; intraperitoneal, 2 mg/kg, 20 to 30 min after dosing).
For `CC[C@@H](C(N)=O)N1CCCC1=O`, the terminal half-life was 1.28 h (LC-MS/MS; rat, paraoxon-induced status epilepticus, whole blood; oral, 50 mg/kg levetiracetam, together with: atropine 5 mg/kg).
With `C[C@H](NC(=O)[C@@H]1CCCN1C(=O)[C@H](CC(N)=O)NC(=O)[C@H](Cc1c[nH]c2ccccc12)NC(=O)[C@@H]1CSSC[C@H](NC(=O)CN)C(=O)N1)C(=O)N[C@H]1CSSC[C@@H](C(N)=O)NC(=O)[C@H](Cc2ccc(O)cc2)NC(=O)[C@H](Cc2c[nH]cn2)NC(=O)[C@H](CCCCN)NC(=O)CNC1=O` the remaining peptide was 0% (RP-HPLC; mouse serum 25% in water; 50 µM, 24 h, 37 °C).
For `C[C@H](Cc1ccc(O)c(O)c1)[C@@H](C)Cc1ccc(O)c(O)c1`, “total amount delivered” read 6.65 ± 0.49 µg (human skin; 1% w/v solution, 24 h).
The free indium-111 of `Cc1cn(CC(=O)N(CCNC(=O)CN(CCNC(=O)CN(CCNC(=O)CN(CCNC(=O)CN(CCNC(=O)CN(CCNC(=O)CN(CCNC(=O)CN(CCNC(=O)CN(CCNC(=O)CN(CCNC(=O)COCCOCCNC(=O)COCCOCCNC(=O)[C@H](CNC(=O)[C@H](CNC(=O)[C@H](CNC(=O)[C@H](CNC(=O)COCCOCCNC(=O)CN2CCN(CC(=O)O)CCN(CC(=O)O)CCN(CC(=O)O)CC2)NC(=O)COCCOCCNC(=O)CN2CCN(CC(=O)O)CCN(CC(=O)O)CCN(CC(=O)O)CC2)NC(=O)[C@H](CNC(=O)COCCOCCNC(=O)CN2CCN(CC(=O)O)CCN(CC(=O)O)CCN(CC(=O)O)CC2)NC(=O)COCCOCCNC(=O)CN2CCN(CC(=O)O)CCN(CC(=O)O)CCN(CC(=O)O)CC2)NC(=O)[C@H](CNC(=O)[C@H](CNC(=O)COCCOCCNC(=O)CN2CCN(CC(=O)O)CCN(CC(=O)O)CCN(CC(=O)O)CC2)NC(=O)COCCOCCNC(=O)CN2CCN(CC(=O)O)CCN(CC(=O)O)CCN(CC(=O)O)CC2)NC(=O)[C@H](CNC(=O)COCCOCCNC(=O)CN2CCN(CC(=O)O)CCN(CC(=O)O)CCN(CC(=O)O)CC2)NC(=O)COCCOCCNC(=O)CN2CCN(CC(=O)O)CCN(CC(=O)O)CCN(CC(=O)O)CC2)NC(=O)[C@H](CNC(=O)[C@H](CNC(=O)[C@H](CNC(=O)COCCOCCNC(=O)CN2CCN(CC(=O)O)CCN(CC(=O)O)CCN(CC(=O)O)CC2)NC(=O)COCCOCCNC(=O)CN2CCN(CC(=O)O)CCN(CC(=O)O)CCN(CC(=O)O)CC2)NC(=O)[C@H](CNC(=O)COCCOCCNC(=O)CN2CCN(CC(=O)O)CCN(CC(=O)O)CCN(CC(=O)O)CC2)NC(=O)COCCOCCNC(=O)CN2CCN(CC(=O)O)CCN(CC(=O)O)CCN(CC(=O)O)CC2)NC(=O)[C@H](CNC(=O)[C@H](CNC(=O)COCCOCCNC(=O)CN2CCN(CC(=O)O)CCN(CC(=O)O)CCN(CC(=O)O)CC2)NC(=O)COCCOCCNC(=O)CN2CCN(CC(=O)O)CCN(CC(=O)O)CCN(CC(=O)O)CC2)NC(=O)[C@H](CNC(=O)COCCOCCNC(=O)CN2CCN(CC(=O)O)CCN(CC(=O)O)CCN(CC(=O)O)CC2)NC(=O)COCCOCCNC(=O)CN2CCN(CC(=O)O)CCN(CC(=O)O)CCN(CC(=O)O)CC2)C(=O)Cn2cnc3c(=O)[nH]c(N)nc32)C(=O)Cn2ccc(N)nc2=O)C(=O)Cn2ccc(N)nc2=O)C(=O)Cn2cnc3c(N)ncnc32)C(=O)Cn2cc(C)c(=O)[nH]c2=O)C(=O)Cn2ccc(N)nc2=O)C(=O)Cn2cnc3c(N)ncnc32)C(=O)Cn2cnc3c(=O)[nH]c(N)nc32)C(=O)Cn2ccc(N)nc2=O)CC(=O)NCCN(CC(=O)NCCN(CC(=O)NCCOCCOCC(=O)N[C@@H]2CSSC[C@H](C(N)=O)NC(=O)[C@@H](CCCCN)NC(=O)[C@@H](CO)NC2=O)C(=O)Cn2ccc(N)nc2=O)C(=O)Cn2ccc(N)nc2=O)c(=O)[nH]c1=O` is reported as less than 1% (radio-HPLC; mouse, ASPC1 xenograft, urine; intravenous, 3.5 h; reference: radioactivity).
With `CC[C@H](C)[C@H](NC(=O)[C@H](Cc1ccc(O)cc1)NC(=O)[C@H](CO)NC(=O)[C@H](CCC(=O)O)NC(=O)[C@H](CCC(=O)O)NC(=O)[C@H](CC(C)C)NC(=O)[C@H](CCCCN)NC(=O)[C@H](CCCCN)NC(=O)[C@@H](NC(=O)[C@@H](NC(=O)[C@H](CCC(=O)O)NC(=O)[C@H](CCC(=O)O)NC(=O)[C@H](CC(C)C)NC(=O)[C@H](CCCCN)NC(=O)[C@H](CCCCN)NC(=O)[C@H](CCSC)NC(=O)[C@H](CCC(=O)O)NC(=O)[C@H](Cc1ccc(O)cc1)NC(=O)[C@H](CCC(=O)O)NC(=O)[C@H](CC(C)C)NC(=O)[C@H](CC(=O)O)NC(=O)[C@H](CC(C)C)NC(=O)[C@H](CC(C)C)NC(=O)[C@@H](NC(=O)[C@@H](NC(=O)[C@H](CC(N)=O)NC(=O)[C@@H](NC(=O)[C@H](CCC(N)=O)NC(=O)[C@@H](NC(=O)[C@H](CC(C)C)NC(=O)[C@H](CO)NC(C)=O)[C@@H](C)O)[C@@H](C)CC)[C@@H](C)O)[C@@H](C)O)C(C)C)C(C)C)C(=O)N[C@@H](CC(=O)O)C(=O)N[C@@H](CC(C)C)C(=O)N[C@@H](CCCCN)C(=O)N[C@@H](CCC(=O)O)C(=O)N[C@@H](CC(C)C)C(N)=O` the CL was 17.3 mL/min/kg (Sprague-Dawley rat; intravenous, 4 mg/kg).

A few entries again:
For `C[C@H](Cc1ccc(O)c(O)c1)[C@@H](C)Cc1ccc(O)c(O)c1`, “total amount delivered” read 6.65 ± 0.49 µg (human skin; 1% w/v solution, 24 h).
